Measurements pooled from the literature.
Compare with care: the assays were run in different laboratories. ± gives the spread as reported.

Molecule	assay	test system	conditions	how to read	quantity	result
CO[C@@H]1[C@H](N(C)C(=O)c2ccccc2)C[C@H]2O[C@]1(C)n1c3ccccc3c3c4c(c5c6ccccc6n2c5c31)C(=O)NC4		newly diagnosed FLT3-wild-type AML patients	oral, 50 mg twice daily, added: daunorubicin/cytarabine induction chemotherapy	baseline: CR patients	CR after first induction cycle	75%
C=C1C2CCC(C2)C1(C)C (centres unmarked)	two-choice feeding trial	Sylvilagus nuttallii	1% dry weight in diet, 72 h, added: monoterpene mixture 1% dry weight		proportion of food consumed	85 ± 0.04%
CC(C)n1cnc(-c2ccc(F)cc2)c1-c1ncc(C(=O)Nc2ccc(N3CCN(C)CC3)cc2)[nH]1	Olink proteomics	IPF patients, serum	60 mg once daily, adjusted p below 0.05, unit not given	baseline: placebo	differentially abundant proteins	22
CN(CCOc1ccc(CC2SC(=O)NC2=O)cc1)c1ccccn1 (centres unmarked)		human liver microsomes	added: 2.5 µM sulfaphenazole		K'	205 µM
CNCCC(Oc1ccc(C(F)(F)F)cc1)c1ccccc1 (centres unmarked)	forced swimming test	mice	40 mg/kg, 0.5 h	baseline: control	immobility duration decrease	57%
C[C@H]1C[C@H]2CSC(N)=N[C@@]2(c2nc(NC(=O)c3ccc(OC(F)F)cn3)cs2)CO1	measured: CSF Aβ1–42	healthy adults	275 mg once daily, 14 days, day 15	baseline: placebo-adjusted baseline	change from baseline	-92.9%
CCN(CC)CCNC(=O)c1c(C)[nH]c(/C=C2\C(=O)Nc3ccc(F)cc32)c1C	measured: CD31	mouse, C26 tumour, tumour	oral, 100 mg/kg, two weeks		microvessel area	decreased
CC[C@H](C)[C@H](N)C(=O)N[C@@H](CC(C)C)C(=O)N1CCC[C@H]1C(=O)N[C@@H](Cc1c[nH]c2ccccc12)C(=O)N[C@@H](CCCCN)C(=O)N[C@@H](Cc1c[nH]c2ccccc12)C(=O)N1CCC[C@H]1C(=O)N[C@@H](Cc1c[nH]c2ccccc12)C(=O)N[C@@H](Cc1c[nH]c2ccccc12)C(=O)N1CCC[C@H]1C(=O)N[C@@H](Cc1c[nH]c2ccccc12)C(=O)N[C@@H](CCCNC(=N)N)C(=O)N[C@@H](CCCNC(=N)N)C(N)=O	carboxyfluorescein release	EYPC vesicles	10 µg/mL, 250 s, pH 7.4, 25 °C	baseline: Triton X-100	leakage	18%
c1ccc(CNCc2ccc(CN3CCCNCCNCCCNCC3)cc2)nc1	multiple electrode aggregometry	human blood	100 nM, added: collagen 0.2 µg/mL		platelet aggregation	decreased
CC(C)C[C@H](NC(=O)[C@H](CC(C)C)NC(=O)[C@H](CCCNC(=N)N)NC(=O)[C@H](CO)NC(=O)[C@H](CC(C)C)NC(=O)[C@H](C)NC(=O)[C@H](CCCNC(=N)N)NC(=O)[C@H](Cc1ccccc1)NC(=O)[C@H](CC(C)C)NC(=O)[C@H](C)NC(=O)CNC(=O)[C@H](CC(C)C)NC(=O)[C@@H](N)Cc1ccccc1)C(=O)O		DPPC/cholesterol/DPPS monolayer	10 µM		surface tension change	13 mN/m
Ac-LRKLRKRLLRDWLKAFYDKVAEKLKEAF-NH2 (N-acetyl, C-amide)	ELISA	peptide, APP/PS1ΔE9 mice, TBS-soluble brain homogenate	retro-orbital, 50 µg/mouse 3 times weekly, 6 weeks	baseline: saline	ApoE level	increased
O=C(NC[C@H]1CN(c2ccc(N3CCOCC3=O)cc2)C(=O)O1)c1ccc(Cl)s1		human, moderate renal impairment, plasma	oral, 10 mg, added: erythromycin at steady state	baseline: normal renal function, compound alone	prothrombin time AUC(0-48h) increase	~70%
NCCCC[C@@H]1NC(=O)[C@@H](Cc2c[nH]c3ccccc23)NC(=O)[C@H](c2ccccc2)NC(=O)[C@@H]2C[C@@H](OC(=O)NCCN)CN2C(=O)[C@H](Cc2ccccc2)NC(=O)[C@H](Cc2ccc(OCc3ccccc3)cc2)NC1=O	measured: GH AUC	healthy volunteers	subcutaneous, added: GHRH		ED50	70.7 µg
CC(C)C[C@H](NC(=O)[C@H](CO)NC(=O)[C@H](CCCNC(=N)N)NC(=O)[C@H](CC(=O)O)NC(=O)[C@H](CCC(=O)O)NC(=O)[C@H](C)NC(=O)[C@@H]1CCCN1C(=O)[C@H](C)NC(=O)[C@H](CCC(=O)O)NC(=O)[C@@H]1CCCN1C(=O)[C@@H]1CCCN1)C(N)=O	HPLC-EC	F344 rat, normal, striatum, wet tissue, both hemispheres	intranasal, 100 µg, 5 days/week for 3 weeks		dopamine level	9040 ± 1430 ng/g
CC(=O)Nc1cccc(OCc2nnc(SCc3ccccc3C(F)(F)F)o2)c1	forced swimming test	mice	40 mg/kg, 0.5 h	baseline: control	immobility duration decrease	44.4%
NC(=O)c1nc(F)c[nH]c1=O		pooled human liver S9	up to 3000 µM, added: acetaminophen 2 mM		acetaminophen glucuronidation inhibition	no effect
CSVTCG	inhibitor	peptide, human platelet-rich plasma	500 µg/mL, added: ADP 4 µM		platelet aggregation	inhibited
Oc1cc2c(cc1O)C(c1ccccc1)CNCC2 (centres unmarked)	five-choice serial reaction time task	male Lister hooded rat, low performers	intraperitoneal, 6 mg/kg		accuracy	70.9 ± 1.89%
COc1ccc(-c2ccc3c(N4CCOC[C@@H]4C)nc(N4CCOC[C@@H]4C)nc3n2)cc1CO		B6 mouse, BALB/c heart allograft	intraperitoneal, 10 mg/kg twice daily, added: rapamycin 2 mg/kg then 1 mg/kg/day		median graft survival	28 days

Molecule	assay	test system	conditions	how to read	quantity	result
CCOc1ccc(Cc2cc([C@@H]3O[C@H](SC)[C@@H](O)[C@H](O)[C@H]3O)ccc2Cl)cc1		healthy Chinese subjects	oral, 200 mg once daily, 24 h, day 8		urinary glucose excretion	38.3 g
CCCCCCCCCCCCCCCC(=O)NCCCC[C@H](NC(=O)[C@H](CCC(=O)O)NC(=O)[C@H](CCC(=O)O)NC(=O)[C@H](Cc1ccc(O)cc1)NC(=O)[C@H](CCC(=O)O)NC(=O)CCCCCNC(=S)Nc1ccc2c(c1)C(=O)OC21c2ccc(O)cc2Oc2cc(O)ccc21)C(=O)N[C@@H](Cc1ccc(O)cc1)C(=O)N[C@@H](CCC(=O)O)C(=O)NCC(=O)NCC(=O)NCC(=O)NCC(=O)N[C@@H](CO)C(=O)NCC(=O)NCC(=O)NCC(=O)NCC(=O)N[C@@H](CO)C(=O)N[C@@H](Cc1ccccc1)C(=O)N[C@@H](CC(N)=O)C(=O)N1CCC[C@H]1C(=O)N[C@@H](CCCNC(=N)N)C(=O)N[C@@H](Cc1c[nH]cn1)C(=O)NC(C)(C)C(=O)N[C@@H](CCC(=O)O)C(=O)NCC(=O)N[C@H](C(=O)N[C@@H](Cc1ccccc1)C(=O)N[C@H](C(=O)N[C@@H](CO)C(=O)N[C@@H](CC(=O)O)C(=O)N[C@H](C(=O)N[C@@H](CO)C(=O)N[C@@H](CO)C(=O)N[C@@H](Cc1ccc(O)cc1)C(=O)N[C@@H](CC(C)C)C(=O)N[C@@H](CCC(=O)O)C(=O)NCC(=O)N[C@@H](CCC(N)=O)C(=O)N[C@@H](C)C(=O)N[C@@H](C)C(=O)N[C@@H](CCCCN)C(=O)N[C@@H](CCC(=O)O)C(=O)N[C@@H](Cc1ccccc1)C(=O)N[C@H](C(=O)N[C@@H](C)C(=O)N[C@@H](Cc1c[nH]c2ccccc12)C(=O)N[C@@H](CC(C)C)C(=O)N[C@H](C(=O)N[C@@H](CCCCN)C(=O)NCC(=O)N[C@@H](CCCNC(=N)N)C(=O)NCC(=O)O)C(C)C)[C@@H](C)CC)C(C)C)[C@@H](C)O)[C@@H](C)O		db/db mouse	subcutaneous, 90 nmol/kg, 0.5 h before glucose, AUC 0-120 min, added: oral glucose 2.0 g/kg	baseline: saline	glucose reduction	57.8%
CC(C)c1cc(Oc2c(Cl)cc(-n3nc(C#N)c(=O)[nH]c3=O)cc2Cl)n[nH]c1=O	circulating triglycerides at vehicle level	Sprague Dawley rats, diet-induced dyslipidemia	added: ACC inhibitor 30 mg/kg		dose	≥ 1 mg/kg
Cn1cnc2ncn(Cc3nc(CCc4ccc(Cl)cc4)no3)c(=O)c21	AITC-evoked nocifensive behaviour, antagonist	rat, plasma unbound	oral, added: AITC		EC50	62 ± 26 nM
thrombin	sandwich ELISA	human, platelet-rich plasma	5 units/mL, 5 min, 37 °C		chemerin level	78 ± 0.7 ng/mL
O=C1CSC(NN=C2c3ccccc3-c3nc4cc(F)ccc4nc32)=N1		mouse, STZ-induced diabetes	oral, 25 mg/kg, day 3		blood glucose	478 ± 44.7 mg/dL
Cc1cc(C)c(/C=C2\C(=O)Nc3ccccc32)[nH]1	MRI, enhancing lesion	human	concentration not given, 1.4 months		tumour area	4.4 cm²
Polymyxin B		human whole blood	250 ng/mL, 4 h, 37 °C, added: E. coli LPS 0.5 ng/mL	baseline: LPS without compound	TNF-α release	4.2 ± 2.3%
CS/C(S)=N/CCCC[S+](C)[O-] (racemic)	RT-PCR, measured: Gpx5	rat, liver	oral gavage, 200 mg/kg, 96 h, dosed for four days	baseline: vehicle	mRNA fold change	0.528
hen egg-white lysozyme	IL-2 secretion	Iso.187 T cell hybridoma, B10.BR mouse	overnight, added: M12.C3.F6 antigen-presenting cells		highest concentration without response	> 30 µM
CC(C)n1nc(-c2ccc3oc(N)nc3c2)c2c(N)ncnc21	immunofluorescence, measured: YB1, vimentin, CD44, MTA1	Pten L/L mouse, prostate PIN lesion epithelium	dose not given		protein level	decreased
Cc1c(C(=O)O)ccc2c3n(nc12)[C@@H]1[C@H](C3)N(CC2CC2)[C@@]2(C(=O)Nc3cc(Cl)ccc32)[C@H]1c1cccc(Cl)c1F	RECIST v1.1	human	80 mg reduced to 45 mg every 3 weeks		maximum tumour shrinkage	-73%
COc1cccc(-c2cc(F)ccc2[C@H]2Cc3nc(N)nc(C)c3C(=O)N2)n1	FDG-PET, SUVmax reduction	human, advanced solid tumours	dose not given, reduction at least 25%	baseline: baseline	partial metabolic response rate	17%
O=C1CCc2ccc(OCc3nnc(SCc4ccc(F)cc4)o3)cc2N1	forced swimming test	mice	40 mg/kg, 0.5 h	baseline: control	immobility duration decrease	36.3%
COc1ccc2c(c1)c(CC(=O)O)c(C)n2C(=O)c1ccc(Cl)cc1	multiplex bead immunoassay, measured: IL-2	CD-1 mice, serum	ip, 20 mg/kg, three-injection regimen, added: LPS 3 mg/kg		cytokine level	7.4 ± 1.5 pg/mL
CC(=O)c1sc(N=C2c3ccccc3-c3nc4cc(F)ccc4nc32)nc1C		mouse, STZ-induced diabetes	oral, 25 mg/kg, day 3		blood glucose	437 ± 51.6 mg/dL
O=C1CCc2ccc(OCc3nnc(SCc4ccc(Cl)cc4)o3)cc2N1	forced swimming test	mice	40 mg/kg, 0.5 h	baseline: control	immobility duration decrease	57.1%
ILPWKWPWWPWRR	carboxyfluorescein release	peptide, EYPC vesicles	10 µg/mL, 250 s, pH 7.4, 25 °C	baseline: Triton X-100	leakage	37%
CC(C)[C@H](NC(=O)[C@@H]1CSSC[C@H](NC(=O)[C@H](CC(=O)O)NC(=O)[C@@H]2CCCN2C(=O)[C@@H](NC(=O)[C@@H](N)CCC(=O)O)[C@@H](C)O)C(=O)N[C@@H](Cc2ccccc2)C(=O)N[C@@H](Cc2c[nH]c3ccccc23)C(=O)N[C@@H](CCCCN)C(=O)N[C@@H](Cc2ccc(O)cc2)C(=O)N1)C(=O)O		male Wistar rats, anaesthetised	intracavernous, 0.3 nmol per rat		ICP increase AUC	65.8 ± 3.7 mmHg·s

Some of these lines once more:
Molecule	assay	test system	conditions	how to read	quantity	result
CCOc1ccc(Cc2cc([C@@H]3O[C@H](SC)[C@@H](O)[C@H](O)[C@H]3O)ccc2Cl)cc1		healthy Chinese subjects	oral, 200 mg once daily, 24 h, day 8		urinary glucose excretion	38.3 g
CCN(CC)CCNC(=O)c1c(C)[nH]c(/C=C2\C(=O)Nc3ccc(F)cc32)c1C	measured: CD31	mouse, C26 tumour, tumour	oral, 100 mg/kg, two weeks		microvessel area	decreased
CC(C)n1cnc(-c2ccc(F)cc2)c1-c1ncc(C(=O)Nc2ccc(N3CCN(C)CC3)cc2)[nH]1	Olink proteomics	IPF patients, serum	60 mg once daily, adjusted p below 0.05, unit not given	baseline: placebo	differentially abundant proteins	22
COc1ccc(-c2ccc3c(N4CCOC[C@@H]4C)nc(N4CCOC[C@@H]4C)nc3n2)cc1CO		B6 mouse, BALB/c heart allograft	intraperitoneal, 10 mg/kg twice daily, added: rapamycin 2 mg/kg then 1 mg/kg/day		median graft survival	28 days
